Published values of several laboratories.
A part holds a random share of what one study measured.

Series 1
Target: Histone acetyltransferase KAT6A, winged helix 2, GST fusion (KAT6A, Homo sapiens, UniProt Q92794, residues 85-181)
Method: protein binding microarray
Form: double-stranded DNA, one strand shown
Sample: in vitro
Concentration: not given
Setting: 8-mer, flanks averaged, mean of 2 arrays, mostly near background
Reference: not given
Direction: higher = stronger binding
Construct (chain): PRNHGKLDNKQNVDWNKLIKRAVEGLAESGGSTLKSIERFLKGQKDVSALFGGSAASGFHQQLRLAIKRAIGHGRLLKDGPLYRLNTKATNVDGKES
| Oligonucleotide | E-score |
| --- | --- |
| ATGGCACG | -0.136 |
| ATCATTGA | 0.0543 |
| CAAGATGG | -0.145 |

Series 2
Target: Prothrombin, mature alpha-thrombin (F2, Homo sapiens, UniProt P00734)
Method: aptamer microarray, sandwich
Form: DNA with 2'F-ANA
Sample: in vitro
Concentration: 200 nM
Setting: whole 15-mer aptamer, many near background
Added: Cy3 exosite-II aptamer, 400 nM
Direction: higher = stronger binding
Oligonucleotide: GGTTGGTGTGGTTGG
| Modification | mean fluorescence intensity |
| --- | --- |
| 2'F-ANA at 1 3 5 6 7 8 9 10 11 14 | 55.7 a.u. |
| 2'F-ANA at 4 6 7 10 12 13 15 | 93 a.u. |
| 2'F-ANA at 1 3 4 6 7 8 9 13 14 15 | 65.1 a.u. |
| 2'F-ANA at 1 2 4 7 10 11 12 14 | 54.8 a.u. |
| 2'F-ANA at 3 9 | 1210 a.u. |

Series 3
Target: RNA binding protein fox-1 homolog 2, RRM domain, GST-SBP tag (RBFOX2, Homo sapiens, UniProt O43251-10, residues 100-194)
Method: RNA Bind-n-Seq
Form: RNA
Sample: in vitro
Concentration: 365 nM
Setting: natural RNA segment, single round, ends assumed
Reference: no-protein control
Direction: higher = stronger binding
| Oligonucleotide | RBNS enrichment (R) |
| --- | --- |
| GGGAGUUCUACAGUCCGACGAUCGCUGACCCUGUCACAACCUCCCAGCACAGCUUUGGAAUGAGACAUCAGCCUGGCCUCCAGCAGAGCAGAGGCUCUGGAGCUCCACAUCCUGCCUGCAGGGAGCCCUCAGGUGGAAUUCUCGGGUGCCAA | 1.42 |
| GGGAGUUCUACAGUCCGACGAUCGUCAAGUCGGAGAGGGACUCUUCAGUAUGGAGGCAGCCUGUGGAGUGCAGCGCCUUUGAGGCUCUGGGUGUAAGACAGUUUCCUUCCCUGACUCUCGUGCACAGACAGCAUGGAAUUCUCGGGUGCCAA | 12.5 |
| GGGAGUUCUACAGUCCGACGAUCUGGGGCGCUGCUCUCCCAGGUCCUGGUCAGACUCAGCUCCAUAGCUCUUGGAGGCUUUCCCUGGAUUCCCUGAGUACAGUGUUAAAAGGCCUAACCACACAGCCACCUGCUGGAAUUCUCGGGUGCCAA | 0.45 |

Single results of other studies
| Substance | target | test | test system | setting | how to read | measurement | value |
| --- | --- | --- | --- | --- | --- | --- | --- |
| PhoQ, residues 284 288 289 292 302 303 GTAMQF | PhoP, residues 12 14 15 18 19 IQSYL (Escherichia coli, UniProt P23836) | Sort-seq, item: YFP reporter | E. coli | PhoQ-PhoP variant library, added: 10 µM Mg2+ | reference: high Mg2+ state, higher = stronger signaling | fold induction | 25.2 |

A few entries again (series 1):
| Oligonucleotide | E-score |
| --- | --- |
| ATGGCACG | -0.136 |
